# Published values collected from several papers.
# A part holds a random share of what one study measured.

# Block 1 — technique: protein binding microarray; molecule type: double-stranded DNA, one strand shown; matrix: in vitro; tested at: not given; relative to: not given; reading: higher = stronger binding
# Target: Histone acetyltransferase KAT6A, winged helix 1, GST fusion (KAT6A, Homo sapiens, UniProt Q92794, residues 1-85)
# Setting: 8-mer, flanks averaged, mean of 2 arrays, mostly near background
# Residues (chain): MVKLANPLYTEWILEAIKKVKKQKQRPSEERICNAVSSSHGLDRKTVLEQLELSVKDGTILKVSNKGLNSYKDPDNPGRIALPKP
Sequence,E-score
CGGCTAGC,0.295
ATATGTAC,-0.0133
ATACCCTC,-0.0313
ACAGGGAC,0.0577
ATTAACAA,-0.114
AATTCCCA,-0.29
CGCTGATA,0.201
ACGACGCC,0.321
CGAACTTC,-0.289
CGGATTAA,0.104
TAAGTGTA,-0.0907
GGAAAGCA,-0.0545
GCGGACCC,0.336
CGTCGCAA,0.31
CCTGCAAA,-0.213
GATAACCA,-0.107
CGCGGTGC,0.416
ATTCCCCC,0.0473
TGTCTAAA,-0.13
GGGTAGGA,0.0897
ACCCGGCT,0.202

# Block 2 — technique: protein-binding microarray; molecule type: double-stranded DNA, one strand shown; matrix: in vitro; tested at: 2540 nM top; setting: 60-bp whole probe; added: salmon DNA 0.4 mg/ml; relative to: random background probes; reading: higher = stronger binding; all sequences stand within: GCCTAGCAC … GTCTTGATTCGCTTGACGCTGCTG
# Target: Interferon regulatory factor 3, full length, phosphomimetic (IRF3, Homo sapiens, UniProt Q14653, residues 1-427, S386D/S396D/S398D/S402D/T404D/S405D)
# Residues (chain): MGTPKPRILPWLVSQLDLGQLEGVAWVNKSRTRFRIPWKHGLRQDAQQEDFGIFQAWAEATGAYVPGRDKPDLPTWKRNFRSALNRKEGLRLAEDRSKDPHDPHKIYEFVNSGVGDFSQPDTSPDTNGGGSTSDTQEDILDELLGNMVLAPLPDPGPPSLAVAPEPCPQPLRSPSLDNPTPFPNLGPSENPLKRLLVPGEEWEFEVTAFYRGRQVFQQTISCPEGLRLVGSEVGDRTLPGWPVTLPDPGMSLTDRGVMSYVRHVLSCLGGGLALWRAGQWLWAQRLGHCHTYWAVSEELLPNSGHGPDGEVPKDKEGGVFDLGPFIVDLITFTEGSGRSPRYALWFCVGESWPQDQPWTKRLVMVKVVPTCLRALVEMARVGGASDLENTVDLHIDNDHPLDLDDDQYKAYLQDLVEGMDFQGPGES
Sequence,fitted relative affinity
AGGACCATCTCATATAAATAGGTGCTA,1.64 z-score
GACGCTATCGGTATCGGGACGTGCTAG,1.93 z-score
TTAGGTATGGGGTTTCGGTTAGTGCTA,2.45 z-score
GACGATTCCGGTTTCGAGACGTGCTAG,4.09 z-score
TTAGAACTGCGTCTCGATTAGTGCTAG,-0.432 z-score
GAAAATTAGTGTTTTGCCCTGTGCTAG,-0.0292 z-score
GGCTGTTTGGTTCTTATCCTGTGCTAG,0.435 z-score
TTAGAACTGATTCTCGATTAGTGCTAG,0.294 z-score
TCATCTTTTCTTTTCTTACTGTGCTAG,3.46 z-score
CTAGGTTTCGGGACTGGGTTAGTGCTA,4.04 z-score
CTGGTCCTCCTGACTGGGGTGGTGCTA,-0.117 z-score
TTAGATTTAAGTTTCGATTAGTGCTAG,3.28 z-score
AGTGGAGTTCATTGTCATTTGTGCTAG,-0.334 z-score
GACGGCTTCGACTATCGGGACGTGCTA,-0.708 z-score
TCCTTTTAATTTTTAACGAGGTGCTAG,3.8 z-score
TTAGGTTCCGGTTCCGGTTAGTGCTAG,5.57 z-score
GACGCTTCCCTTTTCCTGACGTGCTAG,3.52 z-score
GACGGTCTCGGTATAGGGACGTGCTAG,1.03 z-score
TTAGGTATCGGGCTTCGGTTAGTGCTA,0.541 z-score
TTAGGACTGCATTTCCTTTAGTGCTAG,0.61 z-score
GACGGACCGCTTCTCCTGACGTGCTAG,0.129 z-score
CTGCCTGCTCAGACTGGGGCGTGCTAG,-0.15 z-score
TTAGGTGTCCTTCTCCTTTAGTGCTAG,4.74 z-score
TGTGTTTTAAATAGGGCAAAGTGCTAG,0.187 z-score
TCACCTTTGCCTCTGAGACTGTGCTAG,0.219 z-score

# Block 3 — technique: RNA Bind-n-Seq; molecule type: RNA; matrix: in vitro; tested at: not given; relative to: input RNA pool; reading: higher = stronger binding
# Target: RING finger protein unkempt homolog, zinc fingers 1-6, GST-SBP tag (UNK, Homo sapiens, UniProt Q9C0B0, residues 30-357)
# Setting: RNA with constant flanks, human and mouse sites, ends assumed
# Residues (chain): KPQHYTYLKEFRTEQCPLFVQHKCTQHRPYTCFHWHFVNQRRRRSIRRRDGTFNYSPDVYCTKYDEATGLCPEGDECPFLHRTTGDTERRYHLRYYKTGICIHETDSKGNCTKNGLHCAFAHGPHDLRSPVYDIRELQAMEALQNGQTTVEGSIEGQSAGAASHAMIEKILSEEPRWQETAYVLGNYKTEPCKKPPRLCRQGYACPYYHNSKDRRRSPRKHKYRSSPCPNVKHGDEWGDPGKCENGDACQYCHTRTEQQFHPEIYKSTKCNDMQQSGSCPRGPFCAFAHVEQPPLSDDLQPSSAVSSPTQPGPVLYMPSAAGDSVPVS
Sequence,bound/input enrichment
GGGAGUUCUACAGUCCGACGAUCUUUGUUGUUACCAAGAAAACUCAGACUAUUUACCCCAAACCAGUGACAUUCAAUACCUUGCAAAUUCCACCAAAUGUUGCUACAGAAACACAAUUAAAAGGUGGUCAGCAUCCUCAAGCUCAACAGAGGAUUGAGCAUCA,0.111 ratio
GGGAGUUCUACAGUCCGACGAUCCGGUGCAACUUCCGGUCUGCCUACAAGAUGUCUGCGGCCAGUGGUGGCUUCCAACCUCGUGAGCGGCGAUUUUCAGUGCAGGAGCAGGACUGGGAGACUACGCCGCCUAAGAAGCUCCGGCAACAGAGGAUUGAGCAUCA,0.074 ratio
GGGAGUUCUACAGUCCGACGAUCGAACUUAUCACUGGAGCCUAAAAAUGAGGAUUCAGCUUUGCCAGAAAAGGACAAAACAAAUAACUCAUCAAGAUCUAAGAAGCCCAAAGGGUUAGAACUGACACCCGCCCUUGUGGUCACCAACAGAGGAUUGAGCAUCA,0.193 ratio
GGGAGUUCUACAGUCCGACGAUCCCUGAGUUCGAGCCAGUUUUUAGUCUUUUUGCCUUCACCAACAAAAUUACUUCUGUGCACAGUAGAAUUAUUUGGUCUUGUGAUUGGAGUCCUGACAGCAAGUAUUUCUUCACUGGGAGUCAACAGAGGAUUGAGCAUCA,0.814 ratio
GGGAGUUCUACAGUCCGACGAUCCAUGGCACAAGAAUAUAAGAAAGCAUGGGAUUAUGGCAACCACAGAAUCUCAGUAGUACAAGUUCCAUUCAGUUUUUUCUGAAAGAAAGCCCUCUGUUAAAGUGAAGCAAAGAAACUGUUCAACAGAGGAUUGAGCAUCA,0.74 ratio
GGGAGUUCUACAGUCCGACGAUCUAUUUUCUACUCUGCAGAAAAGGAAGAUGUUGCUGGGCACCCAGGAGCUGAAGUUGCUUUGGUUGGUGGCUUGAAACUUCUAGCUAGACUGUCACUUCUUACAGAACAAGACUUAUGGACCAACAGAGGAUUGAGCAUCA,0.306 ratio
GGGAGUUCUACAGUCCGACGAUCCGUGCUUAUGCUCUUCUAUGAGAGAGAUGAAUUGGGGAGAAUUGUCUCCAUUUUAUAGAUUAGUUUCUUUCUAAAUUAUGACCAAAAAUAUUUUGCUAUUUCUUUCUUUGUAUAUGGACACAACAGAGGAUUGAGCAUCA,5.86 ratio
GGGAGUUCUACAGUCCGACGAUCAACCUCAAUGAAGAUUUGGAGGGCAGAUCCUUUCUGGUGACUUUUUGGCCUUUUCUUUUUCUUUUCUUUUUUUUUUUUUCAAAUGUGCAAGUUAGAAGACAAGUGAAAGGAGUGGAAAGUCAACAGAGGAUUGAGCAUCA,0.166 ratio
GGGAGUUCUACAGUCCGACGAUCGGGAGCCCCAUCGCGUCUGUCUCCUUUGGCGCUUGCAGAGACUUCAUUUUCCGGCACAAAGACUCUCGAGGGAAGAGGCCCCGGAGGACAGUGGAGGUGGUCAGGCUGCAGCUGGCACACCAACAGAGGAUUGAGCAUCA,0.383 ratio
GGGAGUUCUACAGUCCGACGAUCUAUAUGUAUGUUUUCAUUCCUGUUUUGUACGAGUGCCUCAUUUUGUAGUCAUGAAAGUAACAUAGUACCUUAAAUAAAAAUGUAAUGACUAAUCUAAGGUCUAGGAAUAACUAUUGUAGACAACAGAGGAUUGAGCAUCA,1.3 ratio
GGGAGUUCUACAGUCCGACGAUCAACUCAAUGGUUGAGGGCUCUGAACUCAAAAAGGUUCGUUCUAACUCCAGAAUUUACCAUCGGUAUUUUCUGCUGGACGCCGACAUGCAAAGCCUGAGGUGGGAGCCAUCUAAGAAGGAUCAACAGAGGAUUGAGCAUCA,0.0657 ratio

# Block 4 — target: CDC34 UBC core domain (UniProt P49427); technique: yeast two-hybrid; matrix: yeast; setting: mostly zero background; relative to: not given; reading: higher = stronger interaction
# B1: PHF21A RING domain (UniProt Q96BD5); chain SPTSTDGDIHEDFCSVCRKSGQLLMCDTCSRVYHLDCLDPPLKTIPKGMWICPRCQDQMLKKEEAIPW
# B2: MID1 RING domain (UniProt O15344); chain METLESELTCPICLELFEDPLLLPCAHSLCFNCAHRILVSHCATNESVESITAFQCPTCRHVITLSQRGL
# B3: TRIM69 RING domain (UniProt Q86WT6); chain VIQDITMELHCPLCNDWFRDPLMLSCGHNFCEACIQDFWRLQAKETFCPECKMLCQYNNCTF
# B4: TRIM8 RING domain (UniProt Q9BZR9); chain WKNCFEEELICPICLHVFVEPVQLPCKHNFCRGCIGEAWAKDSGLVRCPECNQAYNQKPGLE
# B5: RC3H2 RING domain (UniProt Q9HBD1); chain QAAQWTEFLSCPICYNEFDENVHKPISLGCSHTVCKTCLNKLHRKACPFDQTAINTDIDVL
# B6: ZNF598 RING domain (UniProt Q86UK7); chain AAAPERGGGSCVLCCGDLEATALGRCDHPVCYRCSTKMRVLCEQRYCAVCREELRQVVFGK
# Residues (chain): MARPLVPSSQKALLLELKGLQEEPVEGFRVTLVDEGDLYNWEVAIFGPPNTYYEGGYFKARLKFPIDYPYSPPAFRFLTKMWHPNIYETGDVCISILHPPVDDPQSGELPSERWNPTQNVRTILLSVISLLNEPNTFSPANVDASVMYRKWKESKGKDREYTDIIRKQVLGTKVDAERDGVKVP
Molecule,lacZ reporter activity
B1 (PHF21A RING domain),0
DDENSDNSNECVVCLSDLRDTLILPCRHLCLCTSCADTLRYQANNCPICRLPFRALLQIR (MGRN1 RING domain (UniProt O60291)),0
QLRRLQEERTCKVCMDKEVSVVFIPCGHLVVCQECAPSLRKCPICRGIIKGTVRTF (BIRC2 RING domain (UniProt Q13490)),0
YWAMDSTFELCKICAESNKDVKIEPCGHLLCSCCLAAWQHSDSQTCPFCRCEIKGWEAVS (CBLC RING domain (UniProt Q9ULV8)),0
B2 (MID1 RING domain),0
B3 (TRIM69 RING domain),0
B4 (TRIM8 RING domain),0
B5 (RC3H2 RING domain),0
B6 (ZNF598 RING domain),0

# For quick reference, copied from above (block 1):
Sequence,E-score
ATTCCCCC,0.0473
ACAGGGAC,0.0577
TGTCTAAA,-0.13
ATTAACAA,-0.114
ACGACGCC,0.321
CCTGCAAA,-0.213
ACCCGGCT,0.202
TAAGTGTA,-0.0907
